Measured values from different studies.
Parts stem from different laboratories: compare values within a part only.
Sequence of UniProt O75460 (whole entry, looked up): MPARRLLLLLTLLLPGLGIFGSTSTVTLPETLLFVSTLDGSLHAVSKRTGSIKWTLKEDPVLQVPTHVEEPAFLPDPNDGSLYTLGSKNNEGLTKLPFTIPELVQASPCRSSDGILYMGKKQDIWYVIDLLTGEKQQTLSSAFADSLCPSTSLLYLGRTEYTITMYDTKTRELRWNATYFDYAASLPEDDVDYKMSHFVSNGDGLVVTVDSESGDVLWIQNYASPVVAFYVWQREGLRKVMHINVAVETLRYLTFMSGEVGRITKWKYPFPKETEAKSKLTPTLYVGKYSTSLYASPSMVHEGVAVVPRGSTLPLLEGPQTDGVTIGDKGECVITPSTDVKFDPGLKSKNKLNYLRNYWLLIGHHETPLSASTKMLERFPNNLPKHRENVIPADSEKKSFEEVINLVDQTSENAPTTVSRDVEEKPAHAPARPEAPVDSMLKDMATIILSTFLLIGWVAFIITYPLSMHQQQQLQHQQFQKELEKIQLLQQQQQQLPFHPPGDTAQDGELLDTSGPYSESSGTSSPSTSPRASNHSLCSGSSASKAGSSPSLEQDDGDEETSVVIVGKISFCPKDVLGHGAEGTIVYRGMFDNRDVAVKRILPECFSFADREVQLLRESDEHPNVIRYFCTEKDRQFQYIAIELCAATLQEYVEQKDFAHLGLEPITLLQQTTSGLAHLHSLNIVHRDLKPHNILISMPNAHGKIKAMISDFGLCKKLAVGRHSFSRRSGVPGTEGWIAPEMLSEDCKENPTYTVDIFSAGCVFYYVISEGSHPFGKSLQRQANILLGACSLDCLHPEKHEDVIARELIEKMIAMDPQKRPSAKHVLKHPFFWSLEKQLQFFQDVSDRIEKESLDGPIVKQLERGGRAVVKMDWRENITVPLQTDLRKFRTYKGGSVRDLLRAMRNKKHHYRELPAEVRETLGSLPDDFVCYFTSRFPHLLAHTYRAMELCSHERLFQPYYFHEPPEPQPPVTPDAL
Sequence of UniProt Q9Y6R4 (whole entry, looked up): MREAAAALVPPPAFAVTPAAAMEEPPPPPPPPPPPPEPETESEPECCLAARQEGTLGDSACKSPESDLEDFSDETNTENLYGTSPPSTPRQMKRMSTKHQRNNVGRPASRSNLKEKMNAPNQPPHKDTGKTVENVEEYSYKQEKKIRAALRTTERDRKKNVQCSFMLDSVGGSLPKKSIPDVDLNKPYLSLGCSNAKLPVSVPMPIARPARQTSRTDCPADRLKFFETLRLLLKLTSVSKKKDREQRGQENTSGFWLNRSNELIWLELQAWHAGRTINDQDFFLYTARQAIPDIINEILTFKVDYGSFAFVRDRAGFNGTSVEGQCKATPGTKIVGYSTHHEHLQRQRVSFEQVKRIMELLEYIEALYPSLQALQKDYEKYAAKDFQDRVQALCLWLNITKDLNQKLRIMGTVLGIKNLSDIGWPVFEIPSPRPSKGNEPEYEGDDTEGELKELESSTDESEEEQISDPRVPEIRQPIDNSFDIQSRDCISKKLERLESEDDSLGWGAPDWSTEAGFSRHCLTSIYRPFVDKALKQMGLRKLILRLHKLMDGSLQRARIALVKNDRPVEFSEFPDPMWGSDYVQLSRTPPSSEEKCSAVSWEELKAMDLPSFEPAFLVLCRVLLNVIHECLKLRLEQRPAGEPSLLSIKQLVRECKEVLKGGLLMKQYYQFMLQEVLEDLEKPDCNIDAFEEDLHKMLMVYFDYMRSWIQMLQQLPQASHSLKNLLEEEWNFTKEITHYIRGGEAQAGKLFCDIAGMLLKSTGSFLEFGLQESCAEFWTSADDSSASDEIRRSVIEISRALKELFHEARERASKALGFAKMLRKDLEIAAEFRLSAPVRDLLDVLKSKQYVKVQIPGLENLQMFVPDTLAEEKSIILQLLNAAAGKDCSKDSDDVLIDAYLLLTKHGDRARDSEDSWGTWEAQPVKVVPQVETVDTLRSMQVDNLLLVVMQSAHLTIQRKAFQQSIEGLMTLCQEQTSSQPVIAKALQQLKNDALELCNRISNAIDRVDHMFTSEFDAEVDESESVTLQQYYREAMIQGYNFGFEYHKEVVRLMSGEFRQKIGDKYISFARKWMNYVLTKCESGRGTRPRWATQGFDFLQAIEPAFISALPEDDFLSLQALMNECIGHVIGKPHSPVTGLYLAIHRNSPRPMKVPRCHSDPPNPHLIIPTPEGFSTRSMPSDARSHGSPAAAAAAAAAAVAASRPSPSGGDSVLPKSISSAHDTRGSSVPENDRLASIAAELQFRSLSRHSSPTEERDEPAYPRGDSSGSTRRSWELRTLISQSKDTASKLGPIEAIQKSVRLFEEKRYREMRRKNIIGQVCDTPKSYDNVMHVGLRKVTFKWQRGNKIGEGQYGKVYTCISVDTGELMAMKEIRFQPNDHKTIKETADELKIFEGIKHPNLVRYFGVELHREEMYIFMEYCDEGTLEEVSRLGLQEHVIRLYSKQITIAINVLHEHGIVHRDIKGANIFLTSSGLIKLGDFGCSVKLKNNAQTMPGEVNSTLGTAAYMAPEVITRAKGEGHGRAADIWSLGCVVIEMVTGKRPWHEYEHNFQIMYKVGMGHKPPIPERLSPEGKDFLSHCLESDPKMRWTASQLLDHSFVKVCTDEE
Sequence of UniProt O94806 (whole entry, looked up): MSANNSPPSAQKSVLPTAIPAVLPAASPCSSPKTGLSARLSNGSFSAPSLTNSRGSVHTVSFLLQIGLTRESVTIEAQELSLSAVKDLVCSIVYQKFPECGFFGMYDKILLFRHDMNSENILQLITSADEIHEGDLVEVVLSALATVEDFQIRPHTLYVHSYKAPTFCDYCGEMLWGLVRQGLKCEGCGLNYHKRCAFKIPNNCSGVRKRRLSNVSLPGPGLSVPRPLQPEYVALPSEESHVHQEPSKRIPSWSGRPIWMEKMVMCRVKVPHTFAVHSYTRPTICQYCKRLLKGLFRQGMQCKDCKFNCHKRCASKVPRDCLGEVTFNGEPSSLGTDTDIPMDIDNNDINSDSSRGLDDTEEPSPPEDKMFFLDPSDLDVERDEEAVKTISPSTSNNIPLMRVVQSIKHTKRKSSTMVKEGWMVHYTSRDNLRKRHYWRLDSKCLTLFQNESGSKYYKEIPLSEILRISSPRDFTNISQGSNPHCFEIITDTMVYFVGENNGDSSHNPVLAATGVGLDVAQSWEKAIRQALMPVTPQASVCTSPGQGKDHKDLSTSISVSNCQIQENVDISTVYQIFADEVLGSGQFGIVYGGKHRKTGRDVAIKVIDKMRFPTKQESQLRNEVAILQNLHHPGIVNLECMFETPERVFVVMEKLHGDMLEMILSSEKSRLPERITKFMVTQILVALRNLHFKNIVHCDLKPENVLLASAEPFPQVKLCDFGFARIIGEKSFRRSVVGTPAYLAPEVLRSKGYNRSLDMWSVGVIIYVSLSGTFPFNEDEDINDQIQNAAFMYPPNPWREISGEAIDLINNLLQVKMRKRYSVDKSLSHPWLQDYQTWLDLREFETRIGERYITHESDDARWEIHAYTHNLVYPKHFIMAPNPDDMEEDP
Sequence of UniProt Q2M2I8 (whole entry, looked up): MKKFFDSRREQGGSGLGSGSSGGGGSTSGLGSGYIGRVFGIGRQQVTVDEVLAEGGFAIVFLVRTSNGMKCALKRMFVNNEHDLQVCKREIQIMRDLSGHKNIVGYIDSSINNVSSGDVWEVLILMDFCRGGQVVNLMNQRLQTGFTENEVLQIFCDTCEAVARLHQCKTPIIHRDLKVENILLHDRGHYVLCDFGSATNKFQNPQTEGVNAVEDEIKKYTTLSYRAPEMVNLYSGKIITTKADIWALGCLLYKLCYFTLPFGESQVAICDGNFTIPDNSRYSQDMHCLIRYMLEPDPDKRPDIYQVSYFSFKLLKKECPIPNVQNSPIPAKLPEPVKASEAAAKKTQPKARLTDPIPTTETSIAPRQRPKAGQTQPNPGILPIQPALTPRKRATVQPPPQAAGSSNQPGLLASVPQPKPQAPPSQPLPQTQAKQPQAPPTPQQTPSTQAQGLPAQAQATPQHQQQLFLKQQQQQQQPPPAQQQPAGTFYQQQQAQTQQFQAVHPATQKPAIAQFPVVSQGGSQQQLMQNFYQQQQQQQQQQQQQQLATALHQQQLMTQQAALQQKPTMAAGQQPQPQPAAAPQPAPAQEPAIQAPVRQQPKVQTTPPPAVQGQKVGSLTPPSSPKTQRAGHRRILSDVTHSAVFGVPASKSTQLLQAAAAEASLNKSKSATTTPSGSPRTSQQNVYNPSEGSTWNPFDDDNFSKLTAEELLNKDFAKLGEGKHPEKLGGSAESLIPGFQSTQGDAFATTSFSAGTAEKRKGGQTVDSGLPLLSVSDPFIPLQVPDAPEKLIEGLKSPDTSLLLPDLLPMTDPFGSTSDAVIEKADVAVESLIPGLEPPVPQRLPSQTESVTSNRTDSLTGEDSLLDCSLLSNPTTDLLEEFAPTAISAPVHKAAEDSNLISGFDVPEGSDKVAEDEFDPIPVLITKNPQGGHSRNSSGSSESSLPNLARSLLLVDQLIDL
Sequence of UniProt Q09013 (whole entry, looked up): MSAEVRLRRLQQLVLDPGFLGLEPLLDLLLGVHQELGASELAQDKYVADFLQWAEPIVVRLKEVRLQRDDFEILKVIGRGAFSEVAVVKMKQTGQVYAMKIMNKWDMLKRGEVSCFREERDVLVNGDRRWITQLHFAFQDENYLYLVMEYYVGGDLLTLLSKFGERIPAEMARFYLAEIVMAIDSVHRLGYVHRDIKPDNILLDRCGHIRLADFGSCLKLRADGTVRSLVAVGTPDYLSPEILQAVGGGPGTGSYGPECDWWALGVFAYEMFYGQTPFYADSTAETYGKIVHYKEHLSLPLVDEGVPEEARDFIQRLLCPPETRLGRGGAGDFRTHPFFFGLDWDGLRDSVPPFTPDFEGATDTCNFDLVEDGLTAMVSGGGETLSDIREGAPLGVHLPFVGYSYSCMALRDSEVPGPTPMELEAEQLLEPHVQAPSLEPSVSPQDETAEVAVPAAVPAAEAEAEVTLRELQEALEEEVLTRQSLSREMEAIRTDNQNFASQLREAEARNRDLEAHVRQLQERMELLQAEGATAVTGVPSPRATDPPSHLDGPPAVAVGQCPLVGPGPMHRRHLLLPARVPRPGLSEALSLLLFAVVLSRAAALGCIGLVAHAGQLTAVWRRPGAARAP

Series 1 — tested at: 1 µM
Compound: Cn1nc(C(F)(F)F)cc1-c1cnc(N2CCc3cc(S(=O)(=O)Nc4c(F)cc(Cl)cc4F)cc(N4CCCC4=O)c32)nc1
| target | assay | remaining binding |
| --- | --- | --- |
| AKT2 (Homo sapiens, UniProt P31751) | cell-free assay, competition with immobilised ligand | 100% |
| CSNK2A2 (Homo sapiens, UniProt P19784) | cell-free assay, competition with immobilised ligand | 84% |
| MAP4K2 (Homo sapiens, UniProt Q12851) | cell-free assay, competition with immobilised ligand | 95% |
| BMPR1B (Homo sapiens, UniProt O00238) | cell-free assay, competition with immobilised ligand | 83% |
| MAP3K1 (Homo sapiens, UniProt Q13233) | cell-free assay, competition with immobilised ligand | 70% |
| SRPK1 (Homo sapiens, UniProt Q96SB4) | cell-free assay, competition with immobilised ligand | 77% |
| MAP3K4 (Homo sapiens, UniProt Q9Y6R4) | cell-free assay, competition with immobilised ligand | 100% |
| MAP2K4 (Homo sapiens, UniProt P45985) | cell-free assay, competition with immobilised ligand | 88% |
| EGFR (Homo sapiens, UniProt P00533, del747-750/T751S) | cell-free assay, competition with immobilised ligand | 100% |
| STK32C (Homo sapiens, UniProt Q86UX6) | cell-free assay, competition with immobilised ligand | 100% |
| CSNK1D (Homo sapiens, UniProt P48730) | cell-free assay, competition with immobilised ligand | 94% |
| Ribosomal protein S6 kinase alpha-2, N-terminal kinase domain (RPS6KA2, Homo sapiens, UniProt Q15349) | cell-free assay, competition with immobilised ligand | 100% |
| PRKD3 (Homo sapiens, UniProt O94806) | cell-free assay, competition with immobilised ligand | 100% |
| PIK3CA (Homo sapiens, UniProt P42336, Q546K) | cell-free assay, competition with immobilised ligand | 82% |
| EGFR (Homo sapiens, UniProt P00533, T790M) | cell-free assay, competition with immobilised ligand | 94% |
| DMPK (Homo sapiens, UniProt Q09013) | cell-free assay, competition with immobilised ligand | 82% |
| Ribosomal protein S6 kinase alpha-4, N-terminal kinase domain (RPS6KA4, Homo sapiens, UniProt O75676) | cell-free assay, competition with immobilised ligand | 82% |
| CDK17 (Homo sapiens, UniProt Q00537) | cell-free assay, competition with immobilised ligand | 100% |
| ERN1 (Homo sapiens, UniProt O75460) | cell-free assay, competition with immobilised ligand | 92% |
| AAK1 (Homo sapiens, UniProt Q2M2I8) | binding | 100% |
| MAP2K1 (Homo sapiens, UniProt Q02750) | cell-free assay, competition with immobilised ligand | 95% |
| EPHA7 (Homo sapiens, UniProt Q15375) | cell-free assay, competition with immobilised ligand | 78% |

Series 2 — organism: Sarcocystis neurona; effect on: parasite activity; tested at: 10 µM; time: 96 h
| Compound | activity class |
| --- | --- |
| CN(C)[C@@H]1C(O)=C(C(=O)NCN2CCCC2)C(=O)[C@@]2(O)C(O)=C3C(=O)c4c(O)cccc4[C@@](C)(O)[C@H]3C[C@@H]12 | inactive |
| CCCc1nc2c(C)cc(-c3nc4ccccc4n3C)cc2n1Cc1ccc(-c2ccccc2C(=O)O)cc1 | inactive |
| O=S(=O)(O)CCS | inactive |
| CCCCCCNC(=O)n1cc(F)c(=O)[nH]c1=O | active |
| CCCC1O[C@@H]2C[C@H]3[C@@H]4CCC5=CC(=O)C=C[C@]5(C)[C@H]4[C@@H](O)C[C@]3(C)[C@]2(C(=O)CO)O1 (some centres unmarked) | inactive |
| CC(=O)OCC(=O)[C@@]1(O)CC[C@H]2[C@@H]3C[C@H](C)C4=CC(=O)C=C[C@]4(C)[C@H]3[C@@H](O)C[C@@]21C | inactive |
| Cc1cccc(C)c1NC(=O)C1CCCCN1C (centres unmarked) | inactive |

Series 3 — technique: phase 2a trial; host: idiopathic pulmonary fibrosis patients
Structure (SMILES): CC(C)n1cnc(-c2ccc(F)cc2)c1-c1ncc(C(=O)Nc2ccc(N3CCN(C)CC3)cc2)[nH]1
| setting | patients with fatigue [%] |
| --- | --- |
| all arms pooled, grade 3 emergent event | 0 |
| 60 mg once daily, grade 1 emergent event | 0 |
| 30 mg once daily, grade 2 emergent event | 0 |
| all arms pooled, grade 4 emergent event | 0 |
| 60 mg once daily, grade 3 emergent event | 0 |
| 30 mg once daily, grade 4 emergent event | 0 |
| 30 mg once daily, grade 5 emergent event | 0 |

Series 4 — effect on: enzyme activity; tested at: 5 µM; reference: untreated control
SMILES: O=C(Nc1cnn(-c2csc(C(=O)NC3COC3)c2)c1)Nc1c(F)cccc1Cl
| target | remaining activity |
| --- | --- |
| MAPK12 (Homo sapiens, UniProt P53778) | 97.5% |
| Aurora kinase B (AURKB, Homo sapiens, UniProt Q96GD4) | 68.6% |
| Cyclin-dependent kinase 1, with cyclin B (CDK1, Homo sapiens, UniProt P06493) | 105% |
| EPHB3 (Homo sapiens, UniProt P54753) | 95.9% |
| VRK1 (Homo sapiens, UniProt Q99986) | 91.1% |
| CHEK1 (Homo sapiens, UniProt O14757) | 138% |
| STK17A (Homo sapiens, UniProt Q9UEE5) | 89.4% |
| TBK1 (Homo sapiens, UniProt Q9UHD2) | 98.5% |

Some of these lines once more (series 4):
| target | remaining activity |
| --- | --- |
| MAPK12 (Homo sapiens, UniProt P53778) | 97.5% |
| Aurora kinase B (AURKB, Homo sapiens, UniProt Q96GD4) | 68.6% |
| Cyclin-dependent kinase 1, with cyclin B (CDK1, Homo sapiens, UniProt P06493) | 105% |
| EPHB3 (Homo sapiens, UniProt P54753) | 95.9% |
| VRK1 (Homo sapiens, UniProt Q99986) | 91.1% |
| CHEK1 (Homo sapiens, UniProt O14757) | 138% |
| STK17A (Homo sapiens, UniProt Q9UEE5) | 89.4% |
